Measurements of several laboratories.
Protocols differ between the studies behind these lines. Numbers after ± are the reported error.
Organism: HIV-1

Structure (SMILES) | read-out | technique | cells | strain | baseline | quantity | result
CCn1c(C)c(CC(=O)N[C@@H](Cc2ccccc2)C(=O)N(C)c2ccc(F)cc2)c2ccccc21 | viral infection |  |  |  |  | EC50 | 0.22 ± 0.006 µM
CC[C@H](C)[C@@H]1NC(=O)[C@@H]2CCCN2C(=O)[C@H](C)NC(=O)[C@H](CC(C)C)NC(=O)[C@@H]2CCCN2C(=O)[C@H](C)NC(=O)[C@@H]2CSSC[C@H](NC(=O)[C@H](C)NC(=O)[C@H](C)NC(=O)[C@H](Cc3ccc(O)cc3)NC(=O)[C@@H]3CCCN3C(=O)CNC(=O)[C@H](Cc3c[nH]c4ccccc34)NC1=O)C(=O)N[C@@H](CC(C)C)C(=O)N[C@@H](CO)C(=O)N[C@@H](C)C(=O)N[C@H]1CSSC[C@H](NC(=O)[C@H](C(C)C)NC(=O)[C@@H]3CCCN3C(=O)CNC(=O)CNC(=O)CNC(=O)[C@H](C)NC(=O)[C@H](C)NC(=O)[C@H](CC(C)C)NC1=O)C(=O)N[C@@H](CC(C)C)C(=O)N[C@@H](C)C(=O)N[C@@H](C(C)C)C(=O)N2 | viral replication |  |  |  |  | EC50 | > 128 mg/L
C#Cc1ccc(C[C@@H]2NC(=O)CSCCNC(=O)[C@H](Cc3ccccc3)N(C)C(=O)[C@H](CC(C)C)NC(=O)[C@H](CCC3CCCCC3)NC(=O)[C@H](CC(C)C)NC(=O)[C@H](C(C)C)NC(=O)[C@]3(C)CCCN3C(=O)[C@H](C(C)C)NC2=O)cc1 | viral replication |  | MT4 |  | cell EC50 over protease IC50 | EC50/IC50 ratio | 13.7
CCn1c(C)c(CC(=O)N[C@@H](Cc2ccccc2)C(=O)N(C)c2ccc(Cl)cc2)c2ccccc21 | viral infection |  |  |  |  | EC50 | 0.16 ± 0.05 µM
Cc1cc(/C=C/C#N)cc(C)c1Oc1nc(NC2CCN(Cc3ccc(S(C)(=O)=O)cc3)CC2)nc2ncccc12 |  | MTT | MT4 | RT L100I/V179D/Y181C mutant | mutant EC50 over IIIB EC50 | resistance fold | 235
CCn1c(C)c(CC(=O)N[C@@H](Cc2ccccc2)C(=O)N(C)c2cccc(F)c2)c2ccccc21 | viral infection |  |  |  |  | EC50 | 0.43 ± 0.03 µM
O=C(NCCCCCCCC(=O)N1CCCC2=CC3CC(CN4CCCCC34)C21)c1ccc(OC(F)(F)F)cc1 (centres unmarked) | viral replication | multicycle luciferase | MT4 | NL4-3 NanoLuc-sec reporter |  | IC50 | > 20 µM
C#Cc1ccc(C[C@@H]2NC(=O)CSCCNC(=O)[C@H](Cc3ccccc3)N(C)C(=O)[C@H](CC(C)C)NC(=O)[C@H](Cc3cccc4ccccc34)NC(=O)[C@H](CC(C)C)NC(=O)C(C)(C)NC(=O)[C@@H]3CCCN3C(=O)[C@H](C(C)C)NC2=O)cc1 | viral replication |  | MT4 |  | cell EC50 over protease IC50 | EC50/IC50 ratio | 49.1
COc1cc2nc(NC3CCN(Cc4ccc(C(N)=O)cc4)CC3)nc(Oc3c(C)cc(C#N)cc3C)c2cc1OC | viral replication | MTT | MT-4 | IIIB wild type | EC50 mutant over EC50 IIIB | fold resistance | 1
COc1ccc(S(=O)(=O)O)cc1N=Nc1c(S(=O)(=O)O)cc2cc(NCc3nc(CNc4cc(C)c(N=Nc5cc(S(=O)(=O)O)cc6cc(S(=O)(=O)O)cc(O)c56)cc4OC)nc(Nc4ccccc4)n3)ccc2c1O |  |  |  | SF162 K35A pseudovirus | SF162 wild type | IC50 fold change | 1.46 ± 0.45
CC(C)C[C@@H]1NC(=O)[C@H](C(C)C)NC(=O)[C@@H]2CCCN2C(=O)[C@H](C(C)C)NC(=O)[C@H](Cc2ccccc2)NC(=O)CSCCNC(=O)[C@H](Cc2ccccc2)N(C)C(=O)[C@H](CC(C)C)NC(=O)[C@H](Cc2cccc3ccccc23)NC1=O | viral replication |  | MT4 |  | cell EC50 over protease IC50 | EC50/IC50 ratio | 465

Excerpt of the above:
Structure (SMILES) | read-out | technique | cells | strain | baseline | quantity | result
COc1ccc(S(=O)(=O)O)cc1N=Nc1c(S(=O)(=O)O)cc2cc(NCc3nc(CNc4cc(C)c(N=Nc5cc(S(=O)(=O)O)cc6cc(S(=O)(=O)O)cc(O)c56)cc4OC)nc(Nc4ccccc4)n3)ccc2c1O |  |  |  | SF162 K35A pseudovirus | SF162 wild type | IC50 fold change | 1.46 ± 0.45
